Experimental data from different studies.
Numbered parts are unrelated; each lists some results of a single study.

Series 1 — method: protein-binding microarray; form: double-stranded DNA, one strand shown; medium: in vitro; tested at: not given; reading: higher = stronger binding
Target: Protein max, full length (MAX, Homo sapiens, UniProt P61244-2, residues 1-151)
Notes: k-mer, scored over probes, only values ≥0.25
With `CCACCCAC` the E-score was 0.282.
With `CCCCATGC` the E-score was 0.414.
`CGTGACAA` gave an E-score of 0.342.
With `CATATGCA` the E-score was 0.271.

Series 2 — method: protein-binding microarray; form: double-stranded DNA, one strand shown; medium: in vitro; tested at: 2540 nM top; notes: 60-bp whole probe; added: salmon DNA 0.4 mg/ml; reference: random background probes; reading: higher = stronger binding
Target: Interferon regulatory factor 3, full length, phosphomimetic (IRF3, Homo sapiens, UniProt Q14653, residues 1-427, S386D/S396D/S398D/S402D/T404D/S405D)
Chain of UniProt Q14653 (whole entry, unmodified, looked up): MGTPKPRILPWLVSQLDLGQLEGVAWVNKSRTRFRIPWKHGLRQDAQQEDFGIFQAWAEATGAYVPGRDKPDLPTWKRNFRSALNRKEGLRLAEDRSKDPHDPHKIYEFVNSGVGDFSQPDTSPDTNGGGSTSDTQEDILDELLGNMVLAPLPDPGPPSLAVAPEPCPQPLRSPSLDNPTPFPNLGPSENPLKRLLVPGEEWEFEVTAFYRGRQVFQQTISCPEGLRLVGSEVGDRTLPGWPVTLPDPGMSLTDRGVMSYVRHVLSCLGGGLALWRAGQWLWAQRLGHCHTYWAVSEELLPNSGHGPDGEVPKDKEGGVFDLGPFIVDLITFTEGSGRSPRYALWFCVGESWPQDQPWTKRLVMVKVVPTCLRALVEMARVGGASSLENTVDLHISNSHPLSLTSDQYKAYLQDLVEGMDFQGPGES
Under “fitted relative affinity”, `GCCTAGCACCTGCATTACAGCTATTTTTAGGTGCTAGTCTTGATTCGCTTGACGCTGCTG` is recorded as 0.102 z-score.
For `GCCTAGCACTCAAATTCTCATTTCCAACTGTGCTAGGTCTTGATTCGCTTGACGCTGCTG`, “fitted relative affinity” read 1.74 z-score.
`GCCTAGCACGTAGAACTGAGTCTCGATTAGTGCTAGGTCTTGATTCGCTTGACGCTGCTG`: “fitted relative affinity” -0.377 z-score.
For `GCCTAGCACCTAGGTCTCGGACTGGGTTAGTGCTAGGTCTTGATTCGCTTGACGCTGCTG`, “fitted relative affinity” read -0.16 z-score.

Series 3 — method: protein binding microarray; form: double-stranded DNA, one strand shown; medium: in vitro; tested at: not given; reference: not given; reading: higher = stronger binding
Target: Histone acetyltransferase KAT6A, winged helix 2, GST fusion (KAT6A, Homo sapiens, UniProt Q92794, residues 85-181)
Notes: 8-mer, flanks averaged, mean of 2 arrays, mostly near background
Construct (chain): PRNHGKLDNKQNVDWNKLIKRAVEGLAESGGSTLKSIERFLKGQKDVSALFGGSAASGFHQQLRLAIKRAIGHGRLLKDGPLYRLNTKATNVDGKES
With `ATGCGACA` the E-score was 0.0711.
For `GATTTGTA`, the E-score was 0.0703.
For `GCTCTTGA`, the E-score was -0.00723.
`TGTCGCAA` gave an E-score of -0.0556.
The E-score of `CTTTGTCC` is reported as -0.073.
With `GAGTGGAA` the E-score was 0.00572.

Further values, each from its own experiment
The fold induction of `PhoQ, residues 284 288 289 292 302 303 TLASMF` is reported as 5.38 (PhoP, residues 12 14 15 18 19 NHFIF (Escherichia coli, UniProt P23836); Sort-seq, item: YFP reporter; E. coli; PhoQ-PhoP variant library, added: 10 µM Mg2+; reference: high Mg2+ state, higher = stronger signaling).

Excerpt of the above (series 3):
`TGTCGCAA` gave an E-score of -0.0556.
The E-score of `CTTTGTCC` is reported as -0.073.
